Assay results gathered from unrelated publications.
Every numbered part comes from another study and shows a few of its results, in no order.
Sequence of UniProt P48730 (whole entry, looked up): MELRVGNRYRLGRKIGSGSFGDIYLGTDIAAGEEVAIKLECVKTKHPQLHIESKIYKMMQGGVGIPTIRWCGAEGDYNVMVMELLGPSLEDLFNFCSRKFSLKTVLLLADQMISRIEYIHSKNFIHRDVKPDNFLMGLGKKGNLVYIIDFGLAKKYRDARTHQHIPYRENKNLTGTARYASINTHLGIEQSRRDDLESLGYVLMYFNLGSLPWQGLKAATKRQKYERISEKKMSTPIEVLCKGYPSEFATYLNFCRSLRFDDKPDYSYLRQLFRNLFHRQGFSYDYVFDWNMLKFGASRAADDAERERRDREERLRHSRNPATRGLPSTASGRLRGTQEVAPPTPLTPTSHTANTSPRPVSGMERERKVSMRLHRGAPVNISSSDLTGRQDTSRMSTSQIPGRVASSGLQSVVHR

Series 1
Target: Myc proto-oncogene protein, bHLH-zipper, MAX partner unstated (MYC, Homo sapiens, UniProt P01106, residues 368-449)
Sequence of UniProt P01106 (368-449, looked up): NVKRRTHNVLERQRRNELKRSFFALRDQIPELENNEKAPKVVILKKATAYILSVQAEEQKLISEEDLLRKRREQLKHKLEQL
Technique: protein-binding microarray
Form: double-stranded DNA, one strand shown
Medium: in vitro
Tested at: not given
Notes: k-mer, scored over probes, only values ≥0.25
Reading: higher = stronger binding
Oligonucleotide	E-score
CATGGATC	0.273
ACCATATG	0.402
CCACGCGG	0.493
AGGGCATG	0.318
CGGGCACG	0.357
CAGCACAC	0.262
ACATGCGA	0.376
AGGTGTGG	0.27

Series 2
Target: Hepatocyte nuclear factor 3-alpha (Foxa1, Mus musculus, UniProt P35582, residues 1-468, full length assumed)
Technique: EMSA with sequencing
Form: double-stranded DNA, one strand shown
Medium: in vitro
Tested at: 10 and 20 nM
Notes: whole designed probe, mean of two concentrations, ends assumed
Reference: negative control set to 0
Reading: higher = stronger binding
Constant ends, left off below: GTGAGCGGTGCCCATTGATGGGGAAC … TTTCACTGGGATCGTGGGGAC
Residues (chain): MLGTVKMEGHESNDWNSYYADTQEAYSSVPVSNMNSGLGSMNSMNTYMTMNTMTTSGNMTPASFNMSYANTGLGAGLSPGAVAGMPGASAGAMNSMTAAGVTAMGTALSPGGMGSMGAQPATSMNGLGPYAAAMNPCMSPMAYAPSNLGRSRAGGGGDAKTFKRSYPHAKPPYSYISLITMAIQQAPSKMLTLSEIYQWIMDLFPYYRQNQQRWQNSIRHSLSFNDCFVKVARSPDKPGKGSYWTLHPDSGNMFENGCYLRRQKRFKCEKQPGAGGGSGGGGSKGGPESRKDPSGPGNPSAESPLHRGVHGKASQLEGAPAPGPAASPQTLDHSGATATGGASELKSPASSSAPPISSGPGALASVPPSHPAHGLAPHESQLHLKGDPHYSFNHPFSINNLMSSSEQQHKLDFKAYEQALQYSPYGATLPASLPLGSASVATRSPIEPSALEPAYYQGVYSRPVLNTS
Oligonucleotide	normalised bound fraction [ratio]
TCTTTTTCAGTATGACCATGCTTCCCACAGTTAAAATAAGCTCCAGGAAATGGAGTATTTCTTTTATCCACTCTCAGTTCTGCCATTGCCTGTGCCATCTAAGTAGCTTTATGCAGATTACCTCCGATACCATCACAGGCCTTGATATAATCAACTAAATGTGCTTTCCCTCTAATAGGTCACAGAGCAGCCT	-0.0718
AATCCAGCTACCTATCTTCAGTTCCTTGGCCTTCAGCTGGCAGTGAAACAGACACATCAGCTTTAAGACTGGCAGCCAAATAGTTAACGATCTGTAAACATACATAGAGAGTTCCTGTTCAAACATTACGCAAGAGACTGGATGAAAGCCCTTCCATAAAGAACCCTTTAGGTGATGATGCTAAAATTATTTT	0.254
GACTTTTACACAGGCATCATGGGAGTAAGCCCAAGATATTTTCTCACACTTGATTCCAGGCATCTCGGGTTTGGTTTCTTGATCAAATATCTGTGTTTGCTCTGTTTACAAGTATCTGATGAGCAAAACCAACAGAGGTGCTCCAGACAGGCTGGCTGTGCTGATCCCTTGGAAAAGAATTAAACAAAACCCA	0.243
CACTCATAGTCTTGCTATCCTTCATATACAGAGATGACCCTCCCAAGCCTAAAATCAACAGGGGGAGGCATAGAGCTGTCCTTCTGGCTCTAATGTTTGCTTTACCATCATCTTAGTCCAGCATTCCACGCCCATGTGAGAGCCAGTGTGAAGTGAGCAGAATATGGCATAAGTATGGAGTCATACATCCTTA	0.361
TAAAAATGCAACTATAAGTTAAGTCTAACTAATAAAAGTGTTCATTAGATGAGAACGAGAACGTCTTATAGAAAAATAGATGGAAATACTATGTAAACAATGAGTTAAAATCGCAGATTGAAGTGAAAAAAATACTAGCTAGATGTAAGACATGAACCTAGAGCAAATGAAATGCAGAAAGTTAAAAAGAGAA	0.455

Series 3
Target: Probable WRKY transcription factor 50, DNA-binding domain (WRKY50, Arabidopsis thaliana, UniProt Q8VWQ5, residues 99-173)
Sequence of UniProt Q8VWQ5 (99-173, looked up): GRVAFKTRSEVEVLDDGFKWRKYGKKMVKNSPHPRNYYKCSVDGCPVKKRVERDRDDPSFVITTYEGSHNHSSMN
Technique: DNA-protein interaction ELISA
Form: double-stranded DNA, one strand shown
Medium: in vitro, bacterial lysate
Tested at: not given
Notes: whole dsDNA probe, crude lysate protein
Reference: highest signal in screen
Reading: higher = stronger binding
Oligonucleotide	relative absorbance
AAAAAAGCTCATGGCCCTGAGGATCTAAAA	24.3 % of maximum
AAAAAAAATCTTAGCTCTATCTCATCAAAA	28.5 % of maximum
AAAAAATCTATTCCATTTCGCCTTCTAAAA	22.3 % of maximum
AAAAAATGGTCGTCGTACTCGTGGTCAAAA	60.5 % of maximum
AAAAAAGTTTCTGCTTTCCCTTTCGTAAAA	51.1 % of maximum
AAAAAATGCTATCCGTGTCTATGCCAAAAA	18.2 % of maximum
AAAAAATCCATTCTTCGCGTTTATCCAAAA	33.5 % of maximum
AAAAAACTCCCTCTCCTCTGTCTTCCAAAA	31.1 % of maximum

Other studies, line by line
Structure (SMILES)	target	test	setting	scale	measurement	result
CNC(=O)c1cc(Oc2ccc(NC(=O)Nc3ccc(Cl)c(C(F)(F)F)c3)cc2)ccn1	Casein kinase I isoform delta (CSNK1D, Homo sapiens, UniProt P48730)	enzyme activity, inhibitor	0.5 µM	reference: control	remaining activity	103%

For quick reference, copied from above (series 3):
Oligonucleotide	relative absorbance
AAAAAAGCTCATGGCCCTGAGGATCTAAAA	24.3 % of maximum
AAAAAAGTTTCTGCTTTCCCTTTCGTAAAA	51.1 % of maximum
